Assay results of several laboratories.
Lines come from different studies, so protocols differ. Several values in a cell are separate wells, animals, samples, runs or records. Ends that are not written are not given here. * marks the point of attachment.

Substance	target or system	test	test system	setting	scale	quantity	value
oseltamivir carboxylate	Influenza A virus	viral replication, visual CPE score	MDCK, H1N1			EC50	9 µM
AZ3146	human coronavirus OC43	virus-induced cell death	MRC-5			maximum inhibition	2.13%
oseltamivir carboxylate	Influenza B virus	viral replication, MTS				EC50	77.6 µM
insulin human		refers to: CPS1 mRNA	uninfected mouse, brain	i.p., dose not given	relative to: PBS	fold change	1.19
Ro 31-8220	influenza A virus H1N1	viral infection		concentration not given		PB1-F2 protein level	no effect
caspofungin	Aspergillus fumigatus		wild type, minimal medium	concentration not given	relative to: untreated	radial growth ratio	0.516 and 0.392 and 0.558 and 0.449 and 0.434 and 0.468
oligomycin A	human coronavirus OC43	virus-induced cell death	MRC-5			maximum inhibition	11.9%
Biotin-SGSGSWFEPGL (N-biotinylated; Biotin = O=C1N[C@H]2[C@H](CS[C@H]2CCCCC(=O)*)N1)	Plasmodium falciparum		3D7	400 µg/mL, 20 h		merozoite invasion inhibition	no inhibition
oseltamivir carboxylate	Influenza B virus	cytopathic effect, MTS	MDCK			EC50	2.6 µM
ETTLKSF	Plasmodium falciparum	merozoite invasion	peptide, 3D7	200 µg/mL, 20 h, biotinylated peptide		inhibition	~45% and 45%
tunicamycin	Mycobacterium tuberculosis	growth, Microplate Alamar Blue	Erdman			IC50	1.6 µM

Excerpt of the above:
Substance	target or system	test	test system	setting	scale	quantity	value
ETTLKSF	Plasmodium falciparum	merozoite invasion	peptide, 3D7	200 µg/mL, 20 h, biotinylated peptide		inhibition	~45% and 45%
